Experimental data from different studies.
Compare with care: the assays were run in different laboratories. “And” joins repeats or separate records; there may be more than shown. Numbers after ± are the reported error.
Chain of UniProt Q9Y5S2 (whole entry, looked up): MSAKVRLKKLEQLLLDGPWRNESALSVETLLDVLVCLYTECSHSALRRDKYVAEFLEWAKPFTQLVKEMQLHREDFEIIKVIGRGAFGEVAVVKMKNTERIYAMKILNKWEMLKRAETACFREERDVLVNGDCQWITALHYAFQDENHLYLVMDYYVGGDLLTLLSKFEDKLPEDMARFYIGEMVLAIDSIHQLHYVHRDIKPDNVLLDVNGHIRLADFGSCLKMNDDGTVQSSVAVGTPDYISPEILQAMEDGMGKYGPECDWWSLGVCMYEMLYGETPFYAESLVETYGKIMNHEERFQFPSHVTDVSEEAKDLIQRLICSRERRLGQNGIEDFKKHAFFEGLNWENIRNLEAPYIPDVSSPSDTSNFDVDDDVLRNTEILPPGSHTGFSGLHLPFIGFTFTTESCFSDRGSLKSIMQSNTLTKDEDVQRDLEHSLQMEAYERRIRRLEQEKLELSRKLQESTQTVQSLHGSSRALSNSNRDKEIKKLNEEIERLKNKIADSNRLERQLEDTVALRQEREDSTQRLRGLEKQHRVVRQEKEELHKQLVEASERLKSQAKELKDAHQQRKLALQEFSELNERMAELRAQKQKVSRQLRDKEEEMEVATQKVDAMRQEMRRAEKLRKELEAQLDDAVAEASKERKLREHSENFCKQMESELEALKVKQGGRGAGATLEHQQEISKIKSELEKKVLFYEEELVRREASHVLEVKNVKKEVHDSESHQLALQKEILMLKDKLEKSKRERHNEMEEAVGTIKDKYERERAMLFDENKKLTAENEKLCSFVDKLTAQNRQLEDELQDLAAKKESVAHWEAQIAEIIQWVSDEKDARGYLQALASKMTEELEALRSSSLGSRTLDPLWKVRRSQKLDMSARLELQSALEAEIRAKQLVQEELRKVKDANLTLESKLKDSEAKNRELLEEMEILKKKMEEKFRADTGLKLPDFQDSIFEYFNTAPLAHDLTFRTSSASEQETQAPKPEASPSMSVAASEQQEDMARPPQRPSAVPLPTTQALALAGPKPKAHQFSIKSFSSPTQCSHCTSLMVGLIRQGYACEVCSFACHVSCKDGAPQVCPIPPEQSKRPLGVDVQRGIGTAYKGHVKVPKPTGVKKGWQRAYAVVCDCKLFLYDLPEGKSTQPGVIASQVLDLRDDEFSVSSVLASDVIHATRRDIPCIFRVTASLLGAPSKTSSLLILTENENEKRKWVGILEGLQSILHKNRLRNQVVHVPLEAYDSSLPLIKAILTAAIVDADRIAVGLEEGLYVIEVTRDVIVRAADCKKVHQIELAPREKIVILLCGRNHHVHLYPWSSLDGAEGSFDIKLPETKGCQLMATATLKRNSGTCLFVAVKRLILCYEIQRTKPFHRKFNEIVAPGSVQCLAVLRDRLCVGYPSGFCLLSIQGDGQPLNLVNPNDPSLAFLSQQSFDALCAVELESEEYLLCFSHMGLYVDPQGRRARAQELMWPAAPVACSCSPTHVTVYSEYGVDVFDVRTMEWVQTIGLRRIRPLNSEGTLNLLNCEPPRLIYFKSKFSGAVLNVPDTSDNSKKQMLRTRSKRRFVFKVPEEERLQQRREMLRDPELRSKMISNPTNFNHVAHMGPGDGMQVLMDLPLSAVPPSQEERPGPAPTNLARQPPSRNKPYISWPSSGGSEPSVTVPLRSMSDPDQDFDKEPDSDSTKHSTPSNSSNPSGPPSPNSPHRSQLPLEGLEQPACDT
Chain of UniProt Q9UHD2 (whole entry, looked up): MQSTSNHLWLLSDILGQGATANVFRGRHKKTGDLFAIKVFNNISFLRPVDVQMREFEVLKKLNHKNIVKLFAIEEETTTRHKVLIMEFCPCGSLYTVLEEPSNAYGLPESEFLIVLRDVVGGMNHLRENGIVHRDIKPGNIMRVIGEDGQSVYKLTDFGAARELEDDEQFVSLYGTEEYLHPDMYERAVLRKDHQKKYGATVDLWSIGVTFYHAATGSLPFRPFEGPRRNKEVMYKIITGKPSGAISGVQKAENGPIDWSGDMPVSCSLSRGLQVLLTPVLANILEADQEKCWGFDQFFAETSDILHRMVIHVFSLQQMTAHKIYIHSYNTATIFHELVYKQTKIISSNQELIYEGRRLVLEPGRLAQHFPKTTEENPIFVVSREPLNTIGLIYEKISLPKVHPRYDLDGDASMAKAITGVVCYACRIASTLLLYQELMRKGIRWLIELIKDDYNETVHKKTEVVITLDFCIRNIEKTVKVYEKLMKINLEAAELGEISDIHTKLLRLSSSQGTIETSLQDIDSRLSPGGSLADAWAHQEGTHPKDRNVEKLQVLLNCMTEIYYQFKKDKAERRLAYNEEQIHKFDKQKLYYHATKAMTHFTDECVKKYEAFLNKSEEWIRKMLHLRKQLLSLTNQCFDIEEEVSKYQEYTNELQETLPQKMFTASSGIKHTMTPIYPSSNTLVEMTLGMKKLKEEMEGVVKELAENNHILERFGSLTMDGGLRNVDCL

Structure (SMILES) | target or system | test | test system | conditions | how to read | measurement | value
CS(C)(=O)=Nc1ccc(-c2ccc(-c3nc4cc(O[C@@H]5CO[C@H]6[C@@H]5OC[C@H]6O)[nH]c4cc3F)cc2)cc1 | Na+/K+-ATPase | enzyme activity | – | 10 µM | – | inhibition | 1%
CC(C)[C@H]1NC(=O)C[C@H]2/C=C/CCSSC[C@@H](NC1=O)C(=O)N[C@H](Cc1cccc3ccccc13)C(=O)NCC(=O)O2 | CDC42BPB (Homo sapiens, UniProt Q9Y5S2) | enzyme activity, inhibitor | – | 10 µM | – | inhibition | -1.4%
COc1ccccc1-c1n[nH]c2nc(N[C@H]3CC[C@H](NS(=O)(=O)CC(C)C)CC3)ncc12 | Leishmania donovani LINJ.27.0510 | bead binding competition | Leishmania donovani extract | 20 µM | baseline: vehicle | relative abundance | 0.84
CC[C@H](C)[C@H](NC(=O)[C@H](CO)NC(=O)[C@H](Cc1ccc(O)cc1)NC(=O)[C@H](Cc1ccc(O)cc1)NC(=O)[C@H](CC(N)=O)NC(=O)CNC(=O)[C@H](CO)NC(=O)[C@H](Cc1ccc(O)cc1)NC(=O)[C@H](CO)NC(=O)[C@H](CO)NC(=O)[C@H](CC(N)=O)NC(=O)COCCOCCNC(=O)CN1CCN(CC(=O)O)CCN(CC(=O)O)CCN(CC(=O)O)CC1)C(=O)N[C@@H](CC(C)C)C(N)=O [copper-64 labelled] | – | dynamic PET | KPC mouse, pancreatic cancer model, tumor | intravenous, 1.1 min, 49 days after tamoxifen | – | tumour uptake | 13.5 %ID/mL
CC(C)NCCCn1c(Sc2cc3c(cc2I)OCO3)nc2c(N)ncnc21 | epichaperome | PU-PET | mouse, MDA-MB-468 xenograft, tumour | – | – | tumour residence half-time | 60 h
CN(C)[C@H]1C[C@@]23CC[C@@]4(O2)C(=CC[C@]2(C)[C@@H](c5ccc6ccncc6c5)CC[C@H]24)C=C3[C@@H](O)[C@@H]1O | TBK1 (Homo sapiens, UniProt Q9UHD2) | ATP probe labelling, inhibitor, KiNativ profiling | – | 1 µM | – | inhibition | -3%
CC(C)(C)C(=O)OCOP(=O)(OCOC(=O)C(C)(C)C)C1CCCN(O)C1=O (stereo not drawn) | SNB-75 | – | – | – | – | log TGI | -4.54 log M
COc1ccccc1-c1n[nH]c2nc(NC3CCN(C(=O)Cc4ccc(F)cc4F)CC3)ncc12 | Leishmania CKS1 LINJ.32.3940 | bead competition pull-down | Leishmania donovani extract | 10 µM | baseline: vehicle | relative captured amount | 0.65 and 0.35
O=C1NC2(CC2)COc2ncc(F)cc2[C@H]2COCCN2c2ccn3ncc1c3n2 | – | – | Sprague-Dawley rat, female, serum | oral, 10 mg/kg/day, 4 weeks daily, end of recovery period | – | total cholesterol | 1.59 ± 0.14 mmol/L
CSCC[C@H](NC(=O)[C@@H](N)CSC1CC(=O)N(CCNC(=O)COc2ccc(/C=C/C3=[N+]4C(=Cc5ccc(-c6cccs6)n5[B-]4(F)F)C=C3)cc2)C1=O)C(=O)N[C@@H](CCC(=O)O)C(=O)N[C@@H](Cc1ccccc1)C(=O)N[C@H](C(=O)N[C@@H](C)C(=O)N[C@@H](CCCCN)C(=O)N[C@@H](CC(C)C)C(=O)N[C@@H](Cc1ccccc1)C(=O)N[C@@H](CCCCN)C(=O)N[C@@H](Cc1ccccc1)C(=O)N[C@@H](Cc1ccccc1)C(=O)N[C@@H](CCCCN)C(=O)N[C@@H](CC(=O)O)C(=O)N[C@@H](CC(C)C)C(=O)N[C@@H](CC(C)C)C(=O)NCC(=O)N[C@@H](CCCCN)C(=O)N[C@@H](Cc1ccccc1)C(=O)N[C@@H](CC(C)C)C(=O)NCC(=O)N[C@@H](CC(N)=O)C(=O)N[C@@H](CC(N)=O)C(=O)O)C(C)C (stereo partly drawn) | alpha-synuclein oligomers | – | – | 2 µM, 30 min, emission 735 nm | – | fluorescence excitation increase | 1.8 fold
O=C(O)COc1c2c(c(OCC(=O)O)c3c1C1CC3c3cc4c(cc31)C1CC4c3ccccc31)C1CC2c2cc3c(cc21)C1CC3c2ccccc21 | sphingomyelin | 1H NMR titration | methanol-d4 | CH2-N(Me)3 signal | – | association constant | 17 ± 3 M⁻¹
Cc1cc(C(=O)Nc2nc3cccc(C)c3n2[C@H]2CCCCN(C(=O)/C=C/CN(C)C)C2)ccn1 | Trypanosoma brucei CLK1 C215A | differential scanning fluorimetry | – | – | – | melting temperature | 41.2 °C and 41.1 °C
O=C(N[C@@H]1c2ccccc2C[C@H]1N1CCCC1)c1ccc(-c2ccnc3[nH]ccc23)nc1 | ROCK1/2 | MYPT1 phosphorylation, inhibitor, western blot | – | – | – | IC50 | 303 nM
Cc1ccc2c(c1)nc(NC(=O)c1cccc(C(F)(F)F)c1)n2[C@H]1CC[C@H](N)CC1 | Trypanosoma brucei CLK1 C215A | differential scanning fluorimetry | – | – | – | melting temperature | 40.1 °C and 40.2 °C and 40.8 °C
CC[C@H](C)[C@@H]1NC(=O)CNC(=O)[C@H](CC(=O)O)NC(=O)[C@H](CC(=O)O)NC(=O)[C@@H]2CSSC[C@@H]3NC(=O)[C@H](Cc4c[nH]cn4)NC(=O)[C@H](CCCNC(=N)N)NC(=O)[C@H](CCCNC(=N)N)NC(=O)[C@@H](NC(=O)[C@H](CO)NC(=O)[C@@H](N)Cc4c[nH]cn4)CSSC[C@H](NC(=O)[C@H](C)NC(=O)[C@H](Cc4c[nH]c5ccccc45)NC(=O)CNC(=O)[C@H](CSSC[C@@H](C(=O)N[C@@H](CCCCN)C(=O)N4CCC[C@H]4C(=O)N[C@@H](CC(C)C)C(=O)N[C@@H](CCCNC(=N)N)C(=O)N[C@H](C(=O)O)C(C)C)NC1=O)NC(=O)[C@H](CCCNC(=N)N)NC(=O)[C@H](CCCNC(=N)N)NC(=O)[C@H](CC(N)=O)NC(=O)[C@H](CCC(=O)O)NC(=O)[C@H](Cc1c[nH]cn1)NC3=O)C(=O)N[C@@H](Cc1ccc(O)cc1)C(=O)N2 | hKv1.4 human | – | – | concentration not given | – | ion current | no effect
